Results pooled from the literature.
Each numbered part is a random draw from the data of one study; scales do not carry over between parts.

Series 1
Target: Histone acetyltransferase KAT6A, winged helix 2, GST fusion (KAT6A, Homo sapiens, UniProt Q92794, residues 85-181)
Method: protein binding microarray
Molecule type: double-stranded DNA, one strand shown
Medium: in vitro
Concentration: not given
Notes: 8-mer, flanks averaged, mean of 2 arrays, mostly near background
Baseline: not given
Reading: higher = stronger binding
Residues (chain): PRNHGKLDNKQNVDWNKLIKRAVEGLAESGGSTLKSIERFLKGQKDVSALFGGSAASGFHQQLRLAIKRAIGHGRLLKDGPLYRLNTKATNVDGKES
Sequence | E-score
ATGCGCGC | 0.0624
CAGGTTAG | 0.0238
CACAGGCA | -0.106
GCTAATCC | 0.116
CGGTCTCC | 0.0677

Series 2
Target: Ras GTPase-activating protein-binding protein 1, full length (G3BP1, Homo sapiens, UniProt Q13283)
UniProt Q13283, sequence (whole entry, looked up): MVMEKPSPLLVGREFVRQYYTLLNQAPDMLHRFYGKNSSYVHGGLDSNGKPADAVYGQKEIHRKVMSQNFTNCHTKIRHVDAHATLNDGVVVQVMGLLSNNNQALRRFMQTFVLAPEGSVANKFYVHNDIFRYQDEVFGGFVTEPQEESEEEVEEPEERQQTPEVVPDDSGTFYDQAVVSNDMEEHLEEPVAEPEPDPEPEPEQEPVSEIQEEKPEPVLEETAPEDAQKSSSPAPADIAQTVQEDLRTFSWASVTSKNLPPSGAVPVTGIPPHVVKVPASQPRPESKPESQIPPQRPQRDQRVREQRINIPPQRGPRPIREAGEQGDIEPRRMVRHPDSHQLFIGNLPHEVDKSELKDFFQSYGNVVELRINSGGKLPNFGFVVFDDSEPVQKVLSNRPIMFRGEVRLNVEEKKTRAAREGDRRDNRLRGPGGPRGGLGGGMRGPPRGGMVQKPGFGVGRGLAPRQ
Method: RNA Bind-n-Seq
Molecule type: RNA
Medium: in vitro
Concentration: 200 nM
Notes: whole 134-nt RNA, ends assumed
Together with: 150 mM KCl
Baseline: input library
Reading: higher = stronger binding
Constant ends, left off below: GGGAGUUCUACAGUCCGACGAUC … UGGAAUUCUCGGGUGUCAAGG
Sequence | log2 enrichment
CCUGUGCUACACAUCGUAUGUACCGAAUCGGGAAAAAAAGGAAAAAAAGGGAAAAAAAGGGAAAGUAUUAUGUUACGCCGUUCGGAUCUG | -0.927
AGUCCUGUGCUACACAUCGUAUGUACCGAAUCGGGGAAAAAGGAAAAAGGAAAAAGGAAAGUAUUAUGUUACGCCGUUCGGAUCUGCACU | -0.763
UGUGCUACACAUCGUAUGUACCGAAUCGGGGCCCCCCCGGGGCCCCCCCGGCCCCCCCGGGGAAAGUAUUAUGUUACGCCGUUCGGAUCU | -2.01
UGGGAGGUGGAUUUUGUUUAUUUUUUUAGCUCAUUUCCAGGGGUGGGAAUUUUUUUUUAAUAUGUGUCAUGAAUAAAGUAGUUUUUGAAA | 0.26
UGGCCCUGGUGGCAUGUGGGGAGGAAGAGGUGGCCUCAUGGAUCGUGGUGGUCCCGGUGGAAUGUUCAGAGGUGGCCGUGGUGGAGACAG | 0.279

Series 3
Target: Prothrombin, mature alpha-thrombin (F2, Homo sapiens, UniProt P00734)
Method: aptamer microarray, sandwich
Molecule type: DNA with 2'F-ANA
Medium: in vitro
Concentration: 200 nM
Notes: whole 15-mer aptamer, many near background
Together with: Cy3 exosite-II aptamer, 400 nM
Reading: higher = stronger binding
Sequence: GGTTGGTGTGGTTGG
Modification | mean fluorescence intensity
2'F-ANA at 1 7 10 14 15 | 47.1 a.u.
2'F-ANA at 1 2 3 5 8 10 12 | 48.5 a.u.
2'F-ANA at 4 5 6 7 8 10 12 14 15 | 43.5 a.u.
2'F-ANA at 1 2 4 6 7 9 10 13 14 15 | 50.1 a.u.
2'F-ANA at 1 3 8 11 13 14 | 98 a.u.
2'F-ANA at 1 2 3 5 6 8 9 10 12 13 14 | 53.7 a.u.

Other studies, line by line
Molecule | target | test | test system | setting | scale | quantity | result
PhoQ, residues 284 288 289 292 302 303 ALASRC | PhoP, residues 12 14 15 18 19 NFCKL (Escherichia coli, UniProt P23836) | Sort-seq, item: YFP reporter | E. coli | PhoQ-PhoP variant library, together with: 10 µM Mg2+ | baseline: high Mg2+ state, higher = stronger signaling | fold induction | 1.07

Some of these lines once more (series 1):
Sequence | E-score
GCTAATCC | 0.116
CAGGTTAG | 0.0238
